Measurements gathered from unrelated publications.
Compare with care: the assays were run in different laboratories. ± marks the error that the study gave. Positions of bridges follow the written chain, without caps; N, C: chain ends. Square brackets hold non-standard residues; d marks the D form. * marks the point of attachment.
HapB/HapC/HapE/HapX HapX 24-158: HapB/HapC/HapE/HapX HapX 24-158 (Aspergillus fumigatus)
PLAT: PLAT (Homo sapiens, UniProt P00750)
Sequence of UniProt P00750 (whole entry, looked up): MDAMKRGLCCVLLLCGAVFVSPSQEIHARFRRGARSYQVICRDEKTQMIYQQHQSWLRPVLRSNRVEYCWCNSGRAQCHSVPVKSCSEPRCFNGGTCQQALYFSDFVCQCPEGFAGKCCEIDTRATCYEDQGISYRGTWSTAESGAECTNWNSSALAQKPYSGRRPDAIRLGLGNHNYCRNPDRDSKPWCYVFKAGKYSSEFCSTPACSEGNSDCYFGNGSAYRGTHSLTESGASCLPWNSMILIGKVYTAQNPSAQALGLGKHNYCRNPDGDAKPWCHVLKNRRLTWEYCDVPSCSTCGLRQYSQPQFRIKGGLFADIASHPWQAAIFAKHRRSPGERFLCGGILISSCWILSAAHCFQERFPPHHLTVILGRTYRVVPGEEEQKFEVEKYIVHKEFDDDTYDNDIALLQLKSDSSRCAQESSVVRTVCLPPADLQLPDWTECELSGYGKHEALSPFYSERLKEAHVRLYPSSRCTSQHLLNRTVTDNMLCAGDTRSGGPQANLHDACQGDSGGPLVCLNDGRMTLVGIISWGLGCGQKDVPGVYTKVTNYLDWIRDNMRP
B1: acrA (Escherichia coli, UniProt P0AE06); N-terminal lipid at C25; chain CDDKQAQQGGQQMPAVGVVTVKTEPLQITTELPGRTSAYRIAEVRPQVSGIILKRNFKEGSDIEAGVSLYQIDPATYQATYDSAKGDLAKAQAAANIAQLTVNRYQKLLGTQYISKQEYDQALADAQQANAAVTAAKAAVETARINLAYTKVTSPISGRIGKSNVTEGALVQNGQATALATVQQLDPIYVDVTQSSNDFLRLKQELANGTLKQENGKAKVSLITSDGIKFPQDGTLEFSDVTVDQTTGSITLRAIFPNPDHTLLPGMFVRARLEEGLNPNAILVPQQGVTRTPRGDATVLVVGADDKVETRPIVASQAIGDKWLVTEGLKAGDRVVISGLQKVRPGVQVKAQEVTADNNQQAASGAQPEQSKS
B2: traR 1-73 (Escherichia coli, UniProt P41065); chain MSDEADEAYSVTEQLTMTGINRIRQKINAHGIPVYLCEACGNPIPEARRKIFPGVTLCVECQAYQERQRKHYA
B3: bfd 1-73 C43S (Pseudomonas aeruginosa, UniProt Q9HY80); chain MYVCLCQGVTDNQIRDAIYEGCCSYREVREATGVGTQCGKCASLAKQVVRETLNDLQSAQPVPAFGTTAFVAA
B4: FGL1 fibrinogen-like domain 58-312 (Homo sapiens, UniProt Q08830); sequence looked up; chain NEVQFLDKGDENTVIDLGSKRQYADCSEIFNDGYKLSGFYKIKPLQSPAEFSVYCDMSDGGGWTVIQRRSDGSENFNRGWKDYENGFGNFVQKHGEYWLGNKNLHFLTTQEDYTLKIDLADFEKNSRYAQYKNFKVGDEKNFYELNIGEYSGTAGDSLAGNFHPEVQWWASHQRMKFSTWDRDHDNYEGNCAEEDQSGWWFNRCHSANLNGVYYSGPYTAKTDNGIVWYTWHGWWYSLKSVVMKIRPNDFIPNVI
Sequence of UniProt P01317 (whole entry, looked up): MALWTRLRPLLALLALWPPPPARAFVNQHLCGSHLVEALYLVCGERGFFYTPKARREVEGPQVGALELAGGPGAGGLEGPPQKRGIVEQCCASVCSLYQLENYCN
Sequence of UniProt P56536 (whole entry, looked up): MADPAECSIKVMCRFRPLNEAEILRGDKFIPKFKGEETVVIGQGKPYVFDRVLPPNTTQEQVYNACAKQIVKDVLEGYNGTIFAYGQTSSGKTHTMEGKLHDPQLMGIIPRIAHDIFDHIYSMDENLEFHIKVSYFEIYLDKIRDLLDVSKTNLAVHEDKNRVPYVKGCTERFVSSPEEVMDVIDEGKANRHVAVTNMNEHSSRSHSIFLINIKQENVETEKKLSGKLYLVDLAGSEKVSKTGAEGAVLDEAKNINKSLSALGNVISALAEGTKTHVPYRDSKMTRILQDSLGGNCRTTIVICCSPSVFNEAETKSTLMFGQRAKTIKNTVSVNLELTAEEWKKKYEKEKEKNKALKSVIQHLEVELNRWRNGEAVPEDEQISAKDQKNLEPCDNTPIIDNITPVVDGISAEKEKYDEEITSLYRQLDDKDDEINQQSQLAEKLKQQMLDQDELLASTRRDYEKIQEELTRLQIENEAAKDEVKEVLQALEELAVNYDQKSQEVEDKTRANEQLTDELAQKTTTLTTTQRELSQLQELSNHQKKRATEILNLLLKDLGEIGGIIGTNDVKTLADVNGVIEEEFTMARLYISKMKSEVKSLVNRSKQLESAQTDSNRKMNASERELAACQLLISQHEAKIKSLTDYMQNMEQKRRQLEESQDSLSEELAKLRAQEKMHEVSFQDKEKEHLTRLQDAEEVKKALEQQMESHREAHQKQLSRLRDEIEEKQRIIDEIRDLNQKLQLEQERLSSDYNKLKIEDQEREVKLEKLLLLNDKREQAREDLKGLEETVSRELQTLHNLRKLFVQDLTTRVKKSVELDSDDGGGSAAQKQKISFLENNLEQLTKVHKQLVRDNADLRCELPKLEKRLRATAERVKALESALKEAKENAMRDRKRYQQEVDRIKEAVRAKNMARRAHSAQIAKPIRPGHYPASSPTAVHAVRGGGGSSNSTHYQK
Sequence of UniProt P25089 (whole entry, looked up): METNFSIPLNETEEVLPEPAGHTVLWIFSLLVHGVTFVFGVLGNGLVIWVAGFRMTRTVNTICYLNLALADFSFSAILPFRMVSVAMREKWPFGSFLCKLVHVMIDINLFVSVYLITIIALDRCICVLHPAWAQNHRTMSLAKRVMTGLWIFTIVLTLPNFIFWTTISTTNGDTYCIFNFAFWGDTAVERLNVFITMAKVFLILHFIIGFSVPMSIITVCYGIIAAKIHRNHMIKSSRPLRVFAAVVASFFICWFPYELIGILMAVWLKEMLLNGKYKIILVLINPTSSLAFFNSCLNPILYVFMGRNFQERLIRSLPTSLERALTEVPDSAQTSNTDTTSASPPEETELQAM
Sequence of UniProt Q14149 (whole entry, looked up): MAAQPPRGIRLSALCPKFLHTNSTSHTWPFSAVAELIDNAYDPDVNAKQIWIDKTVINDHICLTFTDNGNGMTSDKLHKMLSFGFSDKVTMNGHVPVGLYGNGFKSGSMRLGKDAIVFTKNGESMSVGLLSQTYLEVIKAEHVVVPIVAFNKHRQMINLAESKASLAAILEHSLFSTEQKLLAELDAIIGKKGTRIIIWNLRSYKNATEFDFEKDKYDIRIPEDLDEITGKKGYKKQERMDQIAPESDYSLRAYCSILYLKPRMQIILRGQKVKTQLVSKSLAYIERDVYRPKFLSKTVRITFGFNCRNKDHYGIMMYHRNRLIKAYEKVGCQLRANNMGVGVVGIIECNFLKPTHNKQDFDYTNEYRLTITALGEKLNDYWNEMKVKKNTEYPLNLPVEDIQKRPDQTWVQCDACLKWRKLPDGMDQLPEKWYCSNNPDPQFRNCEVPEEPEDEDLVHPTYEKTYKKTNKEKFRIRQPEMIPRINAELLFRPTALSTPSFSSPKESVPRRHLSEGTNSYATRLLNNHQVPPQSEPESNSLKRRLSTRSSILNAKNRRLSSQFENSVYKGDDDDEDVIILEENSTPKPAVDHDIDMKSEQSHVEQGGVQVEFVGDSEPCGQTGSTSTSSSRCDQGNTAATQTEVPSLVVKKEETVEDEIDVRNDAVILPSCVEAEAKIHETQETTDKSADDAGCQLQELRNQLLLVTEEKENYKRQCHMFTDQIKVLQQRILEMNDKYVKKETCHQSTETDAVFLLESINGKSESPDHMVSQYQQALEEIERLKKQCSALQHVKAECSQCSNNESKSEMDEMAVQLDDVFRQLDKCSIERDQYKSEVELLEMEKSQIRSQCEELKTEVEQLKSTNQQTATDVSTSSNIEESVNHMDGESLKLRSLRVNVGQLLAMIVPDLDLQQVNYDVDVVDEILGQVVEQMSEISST
Sequence of UniProt Q86WV6 (whole entry, looked up): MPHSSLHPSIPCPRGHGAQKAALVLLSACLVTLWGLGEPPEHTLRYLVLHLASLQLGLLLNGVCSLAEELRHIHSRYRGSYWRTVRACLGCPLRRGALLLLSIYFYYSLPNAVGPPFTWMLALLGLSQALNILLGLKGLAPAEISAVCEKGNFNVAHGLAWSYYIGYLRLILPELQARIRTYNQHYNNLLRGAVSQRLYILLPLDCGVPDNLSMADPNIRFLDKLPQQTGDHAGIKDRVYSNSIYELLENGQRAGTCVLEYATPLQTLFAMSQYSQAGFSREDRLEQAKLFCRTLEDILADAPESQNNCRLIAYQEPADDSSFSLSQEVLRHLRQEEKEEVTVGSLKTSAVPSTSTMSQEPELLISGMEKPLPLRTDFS
Sequence of UniProt P29590 (whole entry, unmodified, looked up): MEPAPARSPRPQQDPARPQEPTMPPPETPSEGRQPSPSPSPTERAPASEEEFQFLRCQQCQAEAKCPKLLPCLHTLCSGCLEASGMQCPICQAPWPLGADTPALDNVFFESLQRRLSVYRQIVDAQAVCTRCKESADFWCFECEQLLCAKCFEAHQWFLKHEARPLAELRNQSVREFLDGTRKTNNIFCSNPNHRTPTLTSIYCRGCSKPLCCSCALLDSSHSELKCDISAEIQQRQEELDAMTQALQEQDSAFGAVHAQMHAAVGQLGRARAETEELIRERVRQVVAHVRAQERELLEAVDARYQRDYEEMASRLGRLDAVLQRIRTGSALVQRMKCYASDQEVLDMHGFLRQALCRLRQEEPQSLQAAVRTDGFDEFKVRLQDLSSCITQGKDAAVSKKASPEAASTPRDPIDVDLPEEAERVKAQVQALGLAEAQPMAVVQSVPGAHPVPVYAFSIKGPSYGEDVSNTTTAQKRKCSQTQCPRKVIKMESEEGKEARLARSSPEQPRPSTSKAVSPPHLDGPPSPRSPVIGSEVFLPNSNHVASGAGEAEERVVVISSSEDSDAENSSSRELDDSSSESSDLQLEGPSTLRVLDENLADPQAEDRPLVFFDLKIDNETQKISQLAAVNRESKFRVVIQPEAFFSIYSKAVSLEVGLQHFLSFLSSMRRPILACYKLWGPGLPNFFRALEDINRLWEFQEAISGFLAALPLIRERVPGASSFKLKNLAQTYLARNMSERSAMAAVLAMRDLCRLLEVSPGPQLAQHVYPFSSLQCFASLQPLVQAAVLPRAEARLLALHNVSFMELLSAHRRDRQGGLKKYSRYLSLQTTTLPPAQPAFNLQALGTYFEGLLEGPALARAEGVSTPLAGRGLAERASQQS
Sequence of UniProt P49798 (whole entry, unmodified, looked up): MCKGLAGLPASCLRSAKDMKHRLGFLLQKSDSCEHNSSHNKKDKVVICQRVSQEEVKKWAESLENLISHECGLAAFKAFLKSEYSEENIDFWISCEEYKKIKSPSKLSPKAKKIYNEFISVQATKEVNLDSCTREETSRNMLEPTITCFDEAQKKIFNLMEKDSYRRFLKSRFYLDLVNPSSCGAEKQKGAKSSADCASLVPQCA

`melittin`: “−TΔS of membrane partitioning” -26 kcal/mol (POPC 100%:POPG 0% LUVs; 25 °C).
The k-1 of `B1 (acrA)` is reported as 0.021 s⁻¹ (acrB C493S/C887S/S1043C (Escherichia coli, UniProt P31224); SPR; two-state model, dissociation).
For `protein (Streptomyces exfoliatus, UniProt O87916)`, the Kd was 1500 nM (PBP2a residues 41-end (Staphylococcus aureus); SPR).
With `TTACCAGCCAATCACATGCTGTGTATTAGCAGCCACC (dsDNA)` the Kd was less than 100 nM (HapB/HapC/HapE/HapX HapX 24-158; SPR; double-stranded DNA, one strand shown; HapX on preformed CBC:DNA).
The Kd of `{FITC}-GFID[pS]D[pT]DVEEE-NH2 (peptide; N-terminal FITC, pS5, pT7, C-terminal amide; FITC = O=C1OC2(c3ccc(O)cc3Oc3cc(O)ccc32)c2ccc(NC(=S)*)cc21; pS = N[C@@H](COP(=O)(O)O)C(=O)O; pT = C[C@@H](OP(=O)(O)O)[C@H](N)C(=O)O)` is reported as 59000 ± 6000 nM (TOPBP1 641-746 K704A (Homo sapiens, UniProt Q92547); fluorescence polarisation; peptide; pH 7.5, NaCl 150 mM).
With `gag peptide M6F/I8Y (SHIV)` the relative binding was 1 (Mane-A1*082:01 (Macaca nemestrina); competition with radiolabeled peptide, radioligand binding; relative to: optimal residue, higher = weaker binding).
For `TBK1 fragment Y577A (Homo sapiens)`, “reduction of IFN-β reporter” read greater than 60% (STING1 (Homo sapiens, UniProt Q86WV6); IFN-β luciferase reporter; TBK1 KO HEK293T; added: cGAMP; relative to: wild-type TBK1, higher = more reduction).
`VQIVYK` gave an IC50 of roughly 50 µg/mL (Insulin, B chain (INS, Bos taurus, UniProt P01317); insulin aggregation; pH 7, 37 °C, added: DTT).
`N-formyl-Met-Leu-Phe, N-formyl` has a pEC50 of less than 6 pEC50 (FPR3 (Homo sapiens, UniProt P25089); inhibition of forskolin-stimulated cAMP, agonist; CHO-K1).
With `Glra3/Glrb, Dendra2 fusion (Rattus norvegicus)` the diffusion coefficient was 0.0058 µm^2/s (Gphn, pS270 (Rattus norvegicus); single particle tracking; synapses, added: forskolin).
With `QATFMVFQALAQYQKDAP (C3 1270-1287 (Homo sapiens); N- and C-terminal capped)` the IC50 was 77600 nM (HLA-DRA/HLA-DRB1*03:01 (Homo sapiens); competition with ligand, ELISA; peptide).
Under binding, `B2 (traR 1-73)` is recorded as “binds” (rpoB β subunit 1-1342 (Escherichia coli, UniProt P0A8V2); crystal structure; without ppGpp).
`H-YWCKGLCK-NH2 (designed peptide; disulfide 3-7; SMILES CC(C)C[C@@H]1NC(=O)CNC(=O)[C@H](CCCCN)NC(=O)[C@@H](NC(=O)[C@H](Cc2c[nH]c3ccccc23)NC(=O)[C@@H](N)Cc2ccc(O)cc2)CSSC[C@@H](C(=O)N[C@@H](CCCCN)C(N)=O)NC1=O; free N-terminus/C-amide/cyclic disulfide Cys3-Cys7)` — result for binding: “binds” (RGS4 residues 52-end 52-205, Alexa Fluor 532 label (Homo sapiens, UniProt P49798); flow cytometry; peptide; room temperature).
The Kd of `AGAAAGATAGGGATGGGATG (dsDNA)` is reported as 87 nM (ALBA3 1-107 (Plasmodium falciparum, UniProt Q8IJX8); EMSA; double-stranded DNA, one strand shown; apparent, Scatchard).
The protease inhibition of `RmS-3, glycosylated (Rhipicephalus microplus)` is reported as less than 20% (PLAT; chromogenic substrate hydrolysis, inhibitor; 1 µM).
`TTCTAATTGCCTATGACTTTTTTTAGATAATAAATCTCTCATGAATATCTTTCTCTCTTTATAAATTATCGGATTAAACCTCTTGCAATTATACCACAAAGAATAGGTATAGCATGATATAACGACTTTTCCTAAAATCTTTTATTTCGTATAATAACACTACGGAGACAATATATAAACAATTTTCTTATTTTACCGTCTATTGAGGGCGTGAATACAGAATC (dsDNA)` — result for binding: “binds” (Aspartate aminotransferase (Streptococcus pneumoniae, UniProt Q8DNN5); DNase I footprinting; double-stranded DNA, one strand shown; added: CaCl2 1 mM, MgCl2 10 mM).
With `ARTKQTARKSTG (Histone H3.1 2-13 (Homo sapiens, UniProt P68431); sequence looked up)` the Kd was 7000 nM (MORC3 401-455 (Homo sapiens, UniProt Q14149); fluorescence titration; peptide).
With `ATATACACTACAAGCGACCGATATATTGATGCTTGCTCAAATAAATGTTGAGTAGGGATTCATATATCGGTCGCTTTTTTTGATTTAACAAAAAGGGAAAATGTATAAGGAATATGCATGACTACAGGCATCAGGGAATTCCCTGATTTTACATTATAATGTGATTCTTTTCACAAAAACAAAATGATTTGGTATACAATACGTGTGAAAGGGTTGGTAAATGTGAATGG (dsDNA)` the Kd was 270 nM (rex 1-211 (Staphylococcus aureus, UniProt P60386); EMSA; double-stranded DNA, one strand shown; apparent).
The gliding speed of `tubulin alpha/beta microtubules, taxol-stabilized, rhodamine label` is reported as 666 nm/s (KIF5C 1-407 (Rattus norvegicus, UniProt P56536); in vitro motility assay; 22 °C, added: MgATP 1 mM).
`B3 (bfd 1-73 C43S)`: “iron release rate” 0.019 min⁻¹ (bfrB 1-158 L68A (Pseudomonas aeruginosa, UniProt Q9HY79); Fe2+-bipyridine formation; added: NADPH 1 mM).
With `GATTGGACCAATCACCATGACGGATTGGTAATCCTGCTGA (dsDNA)` the Kd was less than 100 nM (HapB/HapC/HapE/HapX HapX 24-158; SPR; double-stranded DNA, one strand shown; HapX on preformed CBC:DNA).
For `RmS-6, glycosylated (Rhipicephalus microplus)`, the protease inhibition was less than 20% (F12 factor XIIa (Homo sapiens); chromogenic substrate hydrolysis, inhibitor; 1 µM).
With `SGAGEAEERVVVIDDDEDDDAENSSSRY (PML 547-573 S560D/S561D/S562D/S565D (Homo sapiens, UniProt P29590))` the Kd was 2900 ± 800 nM (SUMO2 14-93 C48A (Homo sapiens, UniProt P61956); ITC; peptide; pH 7.4, 25 °C).
With `B4` the Kd was 1100 nM (LAG3 extracellular domain M171I (Homo sapiens); SPR; 20 °C).
For `UUUUUUUUUUUUUUUU (ssRNA)`, the Kd was 2.7 nM (hfq S39W (Listeria monocytogenes, UniProt B8DG33); fluorescence polarization).
`RmS-17, glycosylated (Rhipicephalus microplus)` gave a protease inhibition of less than 20% (PLAT; chromogenic substrate hydrolysis, inhibitor; 1 µM).
Under “molecule per partner”, `DLG1 PDZ2 domain (Homo sapiens)` is recorded as 1 (E6 residues 80-151 (Human papillomavirus type 16); ITC; pH 6.50, 20 °C).

Some of these lines once more:
The gliding speed of `tubulin alpha/beta microtubules, taxol-stabilized, rhodamine label` is reported as 666 nm/s (KIF5C 1-407 (Rattus norvegicus, UniProt P56536); in vitro motility assay; 22 °C, added: MgATP 1 mM).
`B3 (bfd 1-73 C43S)`: “iron release rate” 0.019 min⁻¹ (bfrB 1-158 L68A (Pseudomonas aeruginosa, UniProt Q9HY79); Fe2+-bipyridine formation; added: NADPH 1 mM).
With `GATTGGACCAATCACCATGACGGATTGGTAATCCTGCTGA (dsDNA)` the Kd was less than 100 nM (HapB/HapC/HapE/HapX HapX 24-158; SPR; double-stranded DNA, one strand shown; HapX on preformed CBC:DNA).
For `RmS-6, glycosylated (Rhipicephalus microplus)`, the protease inhibition was less than 20% (F12 factor XIIa (Homo sapiens); chromogenic substrate hydrolysis, inhibitor; 1 µM).
